{"data": "Assay results from different studies", "note": "Each numbered part is a random draw from the data of one study; scales do not carry over between parts. “And” joins repeats or separate records; there may be more than shown."}
{"data": "Block 1", "host": "human", "matrix": "microsomes or S9", "tested at": "2 µM", "time": "0.5 h"}
{"SMILES": "CCOC(=O)Cc1cc(=O)n2nc(-c3ccccc3)c(-c3ccccc3)c2[nH]1", "remaining compound [%]": 54.9}
{"SMILES": "CCOC(=O)c1c(-c2ccccc2)noc1-c1c[nH]nn1", "remaining compound [%]": 80.6}
{"SMILES": "CC(C)=CCn1c(CO)nc2c1c(=O)n(C)c(=O)n2C", "remaining compound [%]": "> 99"}
{"SMILES": "O=C(c1cccs1)C1C(C(=O)c2ccco2)C2(C(=O)Nc3ccccc32)C2C=Cc3ccccc3N12 (stereo not shown)", "remaining compound [%]": 4.26}
{"SMILES": "CCn1cc(NS(=O)(=O)c2cn(C)c(=O)n(C)c2=O)ccc1=O", "remaining compound [%]": "> 100"}
{"SMILES": "CC1(C)Cc2ccccc2C(C2=NC(C)(C)Cc3ccccc32)=N1", "remaining compound [%]": 6.92}
{"SMILES": "COc1cc(=O)[nH]cc1C(=O)N1CCC(=O)N2CCCC21 (stereo not shown)", "remaining compound [%]": 98.7}
{"SMILES": "C/C=C/Cn1c(C(=O)c2ccccc2)c(C(C)C)c(=O)[nH]c1=O", "remaining compound [%]": "> 99"}
{"SMILES": "CC(C)c1noc(CCCn2ccc(-c3ccc(-c4nnn[nH]4)cc3)n2)n1", "remaining compound [%]": 19.9}
{"SMILES": "CCCNc1c(C(=O)OC)nc2ccc(Cl)cn12", "remaining compound [%]": 0.0634}
{"data": "Block 2", "target": "BDNF/NT-3 growth factors receptor (NTRK2, Homo sapiens, UniProt Q16620)", "read-out": "enzyme activity", "action": "inhibitor", "tested at": "0.5 µM", "reference": "control", "sequence of UniProt Q16620 (whole entry, looked up)": "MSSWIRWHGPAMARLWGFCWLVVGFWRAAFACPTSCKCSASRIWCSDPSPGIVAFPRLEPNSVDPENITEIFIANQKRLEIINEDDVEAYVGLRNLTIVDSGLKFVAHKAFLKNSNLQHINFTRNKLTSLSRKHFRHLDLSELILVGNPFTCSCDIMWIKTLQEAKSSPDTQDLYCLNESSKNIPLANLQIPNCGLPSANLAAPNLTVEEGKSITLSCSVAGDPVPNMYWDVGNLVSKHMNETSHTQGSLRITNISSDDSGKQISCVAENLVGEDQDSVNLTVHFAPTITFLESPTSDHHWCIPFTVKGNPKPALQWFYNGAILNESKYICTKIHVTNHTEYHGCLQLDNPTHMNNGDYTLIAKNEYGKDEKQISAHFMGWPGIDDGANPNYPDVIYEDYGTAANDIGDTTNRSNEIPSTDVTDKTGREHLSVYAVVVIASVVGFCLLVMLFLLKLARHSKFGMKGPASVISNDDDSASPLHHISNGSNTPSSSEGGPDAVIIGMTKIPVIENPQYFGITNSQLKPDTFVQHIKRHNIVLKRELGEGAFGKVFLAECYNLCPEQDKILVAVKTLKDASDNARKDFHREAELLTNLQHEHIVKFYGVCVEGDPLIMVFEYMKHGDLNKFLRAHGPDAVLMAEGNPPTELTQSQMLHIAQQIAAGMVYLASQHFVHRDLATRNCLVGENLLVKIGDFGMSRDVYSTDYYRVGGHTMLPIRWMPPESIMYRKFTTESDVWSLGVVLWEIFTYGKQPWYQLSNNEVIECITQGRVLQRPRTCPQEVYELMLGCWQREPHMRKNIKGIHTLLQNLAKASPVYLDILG"}
{"Structure (SMILES)": "CN([C@@H](Cc1ccc(OS(=O)(=O)c2cccc3cnccc23)cc1)C(=O)N1CCN(c2ccccc2)CC1)S(=O)(=O)c1cccc2cnccc12", "remaining activity": "103%"}
{"Structure (SMILES)": "CCN(CC)CCNC(=O)c1c(C)[nH]c(/C=C2\\C(=O)Nc3ccc(F)cc32)c1C", "remaining activity": "9.78%"}
{"Structure (SMILES)": "N#C/C(=C\\c1ccc(O)c(O)c1)C(=O)NCc1ccccc1", "remaining activity": "94.5%"}
{"Structure (SMILES)": "Nc1cccc(-c2cc3c(Oc4cccc(O)c4)ncnc3[nH]2)c1", "remaining activity": "95.5%"}
{"Structure (SMILES)": "COc1cc2c(cc1OC)-c1[nH]nc(Nc3cccc(F)c3)c1C2", "remaining activity": "102%"}
{"Structure (SMILES)": "N#Cc1c(NC(=O)c2cccc3ccccc23)sc2c1CCCC2", "remaining activity": "100%"}
{"Structure (SMILES)": "CCN(CC)CCNC(=O)c1c(C)[nH]c(/C=C2\\C(=O)Nc3ccc(Cl)cc32)c1C", "remaining activity": "8.43%"}
{"Structure (SMILES)": "Cc1cn(-c2cc(NC(=O)c3ccc(C)c(Nc4nccc(-c5cccnc5)n4)c3)cc(C(F)(F)F)c2)cn1", "remaining activity": "85.4%"}
{"Structure (SMILES)": "c1ccc(-c2cnc(Nc3ccc(OCCN4CCCC4)cc3)s2)cc1", "remaining activity": "50.4%"}
{"Structure (SMILES)": "Ic1cccc(CSc2nnc(-c3ccncc3)o2)c1", "remaining activity": "91.4%"}
{"Structure (SMILES)": "CCOc1nc(NC(=O)Cc2cc(OC)ccc2OC)cc(N)c1C#N", "remaining activity": "102%"}
{"Structure (SMILES)": "O=C(Nc1cccc(Nc2nccc(Nc3cccc(C(F)(F)F)c3)n2)c1)C1CC1", "remaining activity": "71.6%"}
{"Structure (SMILES)": "O=C1c2ccccc2-c2n[nH]c3cccc1c23", "remaining activity": "48.2%"}
{"Structure (SMILES)": "O=C(NC(NC(=S)Nc1ccc(F)c([N+](=O)[O-])c1)C(Cl)(Cl)Cl)C(c1ccccc1)c1ccccc1 (stereo not shown)", "remaining activity": "97.7%"}
{"Structure (SMILES)": "O=c1cc(-c2cccc3c2Sc2ccccc2S3)oc(N2CCOCC2)c1", "remaining activity": "99.1%"}
{"Structure (SMILES)": "C[C@@H]1CCN(C(=O)CC#N)C[C@@H]1N(C)c1ncnc2[nH]ccc12", "remaining activity": "97.1%"}
{"Structure (SMILES)": "O=C1C(Cl)=C(N2C(=O)CCC2=O)C(=O)c2ccccc21", "remaining activity": "104%"}
{"Structure (SMILES)": "Cc1nc2cc3nc(-c4cccs4)cnc3cc2n1C", "remaining activity": "64.7%"}
{"Structure (SMILES)": "c1ccc(-c2[nH]ncc2-c2ccnc3ccccc23)nc1", "remaining activity": "112%"}
{"Structure (SMILES)": "CCN(CC)C(=O)c1ccc(Nc2nc(OCC3CCCCC3)c3[nH]cnc3n2)cc1", "remaining activity": "54.3%"}
{"Structure (SMILES)": "CN(C)C[C@H]1CCn2c(c(C3=C(c4cn(C)c5ccccc45)C(=O)NC3=O)c3ccccc32)C1", "remaining activity": "102%"}
{"Structure (SMILES)": "Cn1nc2c3c(cccc31)C(=O)c1ccccc1-2", "remaining activity": "84%"}
{"Structure (SMILES)": "COc1cc2ncnc(Nc3cccc(Cl)c3)c2cc1OC", "remaining activity": "93.3%"}
{"Structure (SMILES)": "Cc1cc2ncc(-c3ccccc3)nc2cc1C", "remaining activity": "103%"}
{"data": "Block 3", "cell line": "mouse MPNST tumor cells", "method": "high-content immunofluorescence imaging", "item": "nuclear SOX9", "tested at": "10 µM", "time": "12 h", "setting": "mean of 2 replicates", "reference": "DMSO control", "reading": "higher = more nuclear SOX9"}
{"SMILES": "CCOc1ccc(Oc2ccc(OCc3cc(F)ccc3F)cc2)c(N)c1", "nuclear SOX9 intensity": "91.5 % of DMSO"}
{"SMILES": "Cc1cccc(-c2[nH]c(C(C)(C)C)nc2-c2ccc3c(c2)OCO3)n1", "nuclear SOX9 intensity": "96.7 % of DMSO"}
{"SMILES": "O=C(Nc1ccc(S(=O)(=O)C(F)(F)F)cc1)C1=CCN(c2ncccc2C(F)(F)F)CC1", "nuclear SOX9 intensity": "149 % of DMSO"}
{"SMILES": "NC1(C(=O)N[C@@H](CCO)c2ccc(Cl)cc2)CCN(c2ncnc3[nH]ccc23)CC1", "nuclear SOX9 intensity": "109 % of DMSO"}
{"SMILES": "CC1c2cccc(O)c2C(O)=C2C(=O)C3(O)C(O)=C(C(N)=O)C(=O)C(N(C)C)C3C(O)C21 (stereo not shown)", "nuclear SOX9 intensity": "93.6 % of DMSO"}
{"SMILES": "COc1cc(O)c(CC=C(C)C)c(O)c1C(=O)/C=C/c1ccc(O)cc1", "nuclear SOX9 intensity": "179 % of DMSO"}
{"SMILES": "Clc1ccc(Cn2c(CN3CCCC3)nc3ccccc32)cc1", "nuclear SOX9 intensity": "124 % of DMSO and 122 % of DMSO"}
{"SMILES": "COc1cc(C(C)C)c2c(c1)S(=O)(=O)N(COc1cc(=O)n3cccc(OCCN4CCCCC4)c3n1)C2=O", "nuclear SOX9 intensity": "106 % of DMSO"}
{"SMILES": "CC(ONC(=O)c1cc(C(F)(F)F)cc(C(F)(F)F)c1)C(=O)Nc1ccc(Cl)cc1 (stereo not shown)", "nuclear SOX9 intensity": "96.7 % of DMSO"}
{"SMILES": "O=C(CCNNC(=O)c1ccncc1)NCc1ccccc1", "nuclear SOX9 intensity": "91.9 % of DMSO"}
{"SMILES": "COCC[n+]1c2c(n(Cc3cnccn3)c1C)C(=O)c1ccccc1C2=O", "nuclear SOX9 intensity": "107 % of DMSO"}
{"SMILES": "Nc1nc2[nH]cc(CCc3ccc(C(=O)N[C@@H](CCC(=O)O)C(=O)O)cc3)c2c(=O)[nH]1", "nuclear SOX9 intensity": "139 % of DMSO"}
{"data": "Block 4", "SMILES": "CCOc1cn(-c2ccc(F)cc2C)nc1C(=O)Nc1ccc(Oc2ccnc3cc(OC)c(OC)cc23)c(F)c1", "tested at": "1 µM", "reference": "DMSO"}
{"cell line": "normal colon patient-derived organoid sample H", "viability [%]": 109}
{"cell line": "normal colon patient-derived organoid sample D", "viability [%]": 97.4}
{"cell line": "normal colon patient-derived organoid sample F", "viability [%]": 104}
{"cell line": "normal colon patient-derived organoids", "assay": "CellTiter-Glo", "setting": "average of five organoid lines", "viability [%]": 80.8}
{"cell line": "normal colon patient-derived organoid sample G", "viability [%]": 20.7}
{"cell line": "normal colon patient-derived organoid sample E", "viability [%]": 72.7}
{"note": "Some of these lines once more (block 2):"}
{"Structure (SMILES)": "CCOc1nc(NC(=O)Cc2cc(OC)ccc2OC)cc(N)c1C#N", "remaining activity": "102%"}
{"Structure (SMILES)": "O=C(Nc1cccc(Nc2nccc(Nc3cccc(C(F)(F)F)c3)n2)c1)C1CC1", "remaining activity": "71.6%"}
{"Structure (SMILES)": "O=C1c2ccccc2-c2n[nH]c3cccc1c23", "remaining activity": "48.2%"}
{"Structure (SMILES)": "O=C(NC(NC(=S)Nc1ccc(F)c([N+](=O)[O-])c1)C(Cl)(Cl)Cl)C(c1ccccc1)c1ccccc1 (stereo not shown)", "remaining activity": "97.7%"}
